# Measured values of several laboratories.
# Protocols differ between the studies behind these lines. Values joined by “and” are separate records of one study, mostly repeats; a detail may differ. ± marks the error that the study gave.
Compound,target or system,test,system,conditions,scale,quantity,result
CCn1nc(Cl)c2c1-c1cnc(N)c(c1)O[C@H](C)c1cc(F)ccc1-c1nn(C)cc1C2,Ba/F3 CLIP1-LTK,cell viability,,,,IC50,0.0019 µM
CNS(=O)(=O)Nc1nccc(Cc2c(C)c3ccc(Oc4ncccc4F)cc3oc2=O)c1F,KLE,cell viability,,7 days,,IC50,0.000207 µM
COc1cc(-c2cn(C)c(=O)c3cnccc23)c(OC)cc1CN(C)C,Kasumi 1,"cell growth or viability, ATP luminescence",,,,IC50,10 µM
O=[N+]([O-])c1cn2c(n1)O[C@@H](COc1ccc(-c3ccc(F)cc3)nc1)CC2,Trypanosoma cruzi,"reporter mRNA translation, inhibitor, measured: Renilla luciferase mRNA",cell-free extract,concentration not given,baseline: positive over negative control,translation activity,101% and 148%
CCOc1cncc(-c2ccc(NC(=O)C3(c4ccnc(NS(=O)(=O)C5CC5)n4)CCOCC3)nc2)n1,EJM,"cell growth or viability, ATP luminescence",,72 h,,IC50,0.032 µM
C=CC(=O)N1CCc2ccc(-n3c(=O)ccc4cnc5ccc(-c6cnn(C)c6)cc5c43)cc21,CNE2Z,cell growth or viability,,,,IC50,2.71 µM
C=CC(=O)N1CCCC(n2c(=O)c3ncccc3n(Cc3ccc(Oc4ccccc4)cc3)c2=O)C1 (centres unmarked),OCI-Ly8,"cell growth or viability, MTT",,72 h,,IC50,0.3 µM
O=C(NCCOCCNC(=O)c1cc2ccccc2c2ccccc12)c1cc(C(=O)N2CCNCCNCCNCC2)c(O)c(C(=O)N2CCNCCNCCNCC2)c1,PK-59,"cell growth or viability, MTT",,24 h,,IC50,> 1000 µM
Clc1ccc(Cn2cc(-c3ccccc3)[n+]3c2CCC3)cc1Cl.[Cl-],Trypanosoma cruzi,"reporter mRNA translation, inhibitor, measured: Renilla luciferase mRNA",cell-free extract,"concentration not given, test 1",baseline: positive over negative control,translation activity,128% and 109%
Cn1ncc(-c2ccc3c(=O)[nH]nc(CN)c3c2)c1-c1c(F)c(Cl)cc(OC2CC2)c1C#N,KARPAS-299,"cell viability, inhibitor, CellTiter-Glo",,"120 h, baseline-subtracted",,IC50,0.06 µM
CCCCCCCC(=O)Oc1c(C)c(OC)c2c(/C=C/c3ccccc3)c(CCCCCC)c(=O)oc2c1C,FaDu,"cell growth or viability, SRB",,72 h,,IC50,> 50 µM
CC1(C)CC(=O)C2=C(C1)Oc1c(O)cccc1C2n1nnc2ccccc21 (centres unmarked),3T3-L1,"cell growth or viability, MTT",,72 h,,IC50,75.8 µg/mL
O=C1CCc2ccc(NS(=O)(=O)c3cccc(C(=O)c4ccccc4)c3)cc2N1,BV-2,"PGE2 release, inhibitor",,LPS-stimulated,,IC50,0.006 µM
CCCC(=O)[O][Pt]([Cl])([Cl])[O]C(=O)CCC.N.N,A549/DDP cisplatin-resistant,MTT,,"48 h, non-transfected",,IC50,18.3 ± 4.02 µM
CC(C)c1ccc(N(C)c2ccc3c(c2)OCC[C@H]3CNc2cnccc2C(=O)O)cc1,JeKo-1,"cell growth or viability, ATP luminescence",,7 days,,IC50,0.0018 µM
CC(C)=CC1OC(C)(C)C2C=C3C(=O)C(Cl)=CC(O)C3C3C(O)C4OC4C(=O)C132 (centres unmarked),KARPAS-299,"cell growth or viability, MTS",,,,IC50,0.63 µM
CCCCCCC(=O)[O][Pt]([NH2])([NH2])([Cl])([Cl])[O]C(=O)CCC(C)C1CCC2C3CCC4CC(O)CCC4(C)C3CCC12C (centres unmarked),RWPE-1 normal prostate,"cell viability, MTT",,72 h,,IC50,1.7 ± 0.4 µM
